Measured values collected from several papers.
Parts stem from different laboratories: compare values within a part only. Several values in a cell are separate wells, animals, samples, runs or records. Substitutions count along the parent as printed.

Set 1 — technique: RNA Bind-n-Seq; form: RNA; matrix: in vitro; concentration: 365 nM; reference: no-protein control; reading: higher = stronger binding; quantity: RBNS enrichment (R)
Target: RNA binding protein fox-1 homolog 2, RRM domain, GST-SBP tag (RBFOX2, Homo sapiens, UniProt O43251-10, residues 100-194)
Notes: natural RNA segment, single round, ends assumed
All sequences stand within: GGGAGUUCUACAGUCCGACGAUC … UGGAAUUCUCGGGUGCCAA
Construct (chain): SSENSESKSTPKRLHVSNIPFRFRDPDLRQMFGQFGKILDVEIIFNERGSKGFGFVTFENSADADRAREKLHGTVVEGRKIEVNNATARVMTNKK
UUUGAUGGUAAUAGUAUCCCAGUACAAAAAGGCUGUAAGAUAGUGAACCACAGUAGUCAUCUAUGUCUGUGCCUCCCUUCUUCAUUGGGGACAUUGUGGGCUGGAACAGC: 0.531
GUUUAUGGACUUAACUAUUUCUGUGAUGUUUCAUUUUUAGCCAUGUUAACUCCUAACACAUAUUCUCUUAUGUCUCAGUAAAGUUUCAUUUGAUAAGUUGUUGAGAUUCU: 0.316
GUGAAGGUAGGGGUGAGCUCGUCUCACCCCUUUAUUAAAUGCUCCUGGAACUUGGAAGAGCAGCAGAUGAAGUUGGAAAGAAAAUUCUGCUCUUAUCACCUAAACAGGAC: 0.468
GCAUCUUCUAGAUGGCAGAGGGGUGAAUGGCAGGGCCAGGAACCAGGCUGCCCGGGUUCCCAUUCUGCUUCUGCCACUUCCAGCUGUGUGGCUUUAGGUGAGCCUUCACC: 0.743
CUGCUUUUCCACAAGGAAUCUCCGUAGAAUUUUGCGGCGACCAGAUGGUGCAUAGGUCUGGAAGGUCUGAUCUCCCUUGGUCUUCCAUGGGAUGGUUAGUGUGGAGGGGA: 0.707
GUUGGACCAUGUGGGACCCUGAUGGACCUGAAAGACCAGGAUCGGUCCAGCUCAGAUAUUGAGGGCUCUGAAGCCUAGUUCUGUCUUCUCUGGAGCAGCUGUGGCUUCCC: 0.224
UCUAGCCUGGGGCUUGAAUUUGCAUGUCUAAUUCAUUUACUCACCAUAUUUGAAUUGGCCUGAACAGAUGUAAAUCGGGAAGGAUGGGAAAAACUGCAGUCAUCAACAAU: 3.02
GCUGGGAUUACAGGUGUGAGCCACCACGCCCGGCCGAUUUGGGGCAUUUUUAUUUAACAGAACUUCUCUAACCUUCCAACUGCUUCCCACAAACACAUUGGCCUCAAGGC: 1.57
UUUUUGACUCAUGGUUUAAAGGCAUCCUUUCCAUCUUGGGGAGGUCAUGGGUGCUCCUGGCAACUUGCUUGAGGAAGAUAGGUCAGAAAGCAGAGUGGACCAACCGUUCA: 0.829
GAACGGGACUGAAUUUGAUCACCAGCCCCACAAACCAUUCUCAAUGGUCAAUGGUUGUAAUCCCAGCACUACAAGGCAGGAAGAUCAUAAGUUCAAGGUCAUUCUUAUCU: 0.249
AUGAAGUUGUGUUGCCUCAGGCUGUUUAGGGACCAUUGCCUGUCUUGGUCACAUGAGUCUGUCUCCUUACUUUAGUCCCUGGGCAAUCCUUGCUUAAUGCUUUUGUUGAC: 0.601
UGCUCAGCUCUGCUUAUAGCUAUACCUGCCUCUUAGGUCUUCUGUUUGCCCGUUUCUGAGGUCAGAUGGAUGGAUGUCUGAUGUCUUCCUGUGUUUUCCCUCGAUCUCUC: 0.339

Set 2 — technique: protein binding microarray; form: double-stranded DNA, one strand shown; matrix: in vitro; concentration: not given; reference: not given; reading: higher = stronger binding; quantity: E-score
Target: Histone acetyltransferase KAT6A, both winged helices, GST fusion (KAT6A, Homo sapiens, UniProt Q92794, residues 1-181)
Notes: 8-mer, flanks averaged, mean of 2 arrays, mostly near background
Target sequence (chain): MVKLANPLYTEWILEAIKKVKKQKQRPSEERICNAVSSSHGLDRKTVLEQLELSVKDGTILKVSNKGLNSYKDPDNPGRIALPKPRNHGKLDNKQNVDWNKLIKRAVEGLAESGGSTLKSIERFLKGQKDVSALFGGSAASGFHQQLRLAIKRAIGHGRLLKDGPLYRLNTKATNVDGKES
GCCACGCC: 0.0432
ATCGACAC: -0.0412
ATGAACCC: 0.00136
ACTTTGCT: -0.0382
CGTTGGAG: 0.127
GTTGGTAA: -0.0388
AATTTTCG: 0.00852
ATAACGGG: 0.149
ATCTCATA: -0.196
AAAAGCCT: -0.199
CAGCAATC: -0.201
ACTGATCG: -0.0108
TAGCCCGA: 0.0879
CACATCCG: 0.105
ATGGACAG: -0.121
AATTGGTG: -0.22
AAATTAAG: -0.102
AATGTTCA: -0.00888
ACTTGTCA: -0.0535
AGAGGGCT: -0.175
AAGCTCCG: 0.189
TCCTGAAA: 0.00804
CAGCGTTA: 0.0697

Set 3 — target: CCNB1, cyclin fold, Cln2 fusion (human); technique: yeast growth competition, sequencing; matrix: yeast; notes: weak parent motif; reference: not given; reading: higher = stronger binding; quantity: normalised enrichment score
Starting sequence: FOXM1 docking peptide (human); PHLARPIKVESPP
S11A: -0.209
K8A: -0.156
I7A: -0.267
P12A: -1.15
V9A: 0.09
P13A: -0.228

Set 4 — technique: universal PBM; form: double-stranded DNA, one strand shown; matrix: in vitro; concentration: 600 nM; reading: higher = stronger binding; quantity: E-score
Target: Sal-like protein 4, full length isoform A (SALL4, Homo sapiens, UniProt Q9UJQ4, residues 1-1053)
Sequence of UniProt Q9UJQ4 (whole entry, looked up): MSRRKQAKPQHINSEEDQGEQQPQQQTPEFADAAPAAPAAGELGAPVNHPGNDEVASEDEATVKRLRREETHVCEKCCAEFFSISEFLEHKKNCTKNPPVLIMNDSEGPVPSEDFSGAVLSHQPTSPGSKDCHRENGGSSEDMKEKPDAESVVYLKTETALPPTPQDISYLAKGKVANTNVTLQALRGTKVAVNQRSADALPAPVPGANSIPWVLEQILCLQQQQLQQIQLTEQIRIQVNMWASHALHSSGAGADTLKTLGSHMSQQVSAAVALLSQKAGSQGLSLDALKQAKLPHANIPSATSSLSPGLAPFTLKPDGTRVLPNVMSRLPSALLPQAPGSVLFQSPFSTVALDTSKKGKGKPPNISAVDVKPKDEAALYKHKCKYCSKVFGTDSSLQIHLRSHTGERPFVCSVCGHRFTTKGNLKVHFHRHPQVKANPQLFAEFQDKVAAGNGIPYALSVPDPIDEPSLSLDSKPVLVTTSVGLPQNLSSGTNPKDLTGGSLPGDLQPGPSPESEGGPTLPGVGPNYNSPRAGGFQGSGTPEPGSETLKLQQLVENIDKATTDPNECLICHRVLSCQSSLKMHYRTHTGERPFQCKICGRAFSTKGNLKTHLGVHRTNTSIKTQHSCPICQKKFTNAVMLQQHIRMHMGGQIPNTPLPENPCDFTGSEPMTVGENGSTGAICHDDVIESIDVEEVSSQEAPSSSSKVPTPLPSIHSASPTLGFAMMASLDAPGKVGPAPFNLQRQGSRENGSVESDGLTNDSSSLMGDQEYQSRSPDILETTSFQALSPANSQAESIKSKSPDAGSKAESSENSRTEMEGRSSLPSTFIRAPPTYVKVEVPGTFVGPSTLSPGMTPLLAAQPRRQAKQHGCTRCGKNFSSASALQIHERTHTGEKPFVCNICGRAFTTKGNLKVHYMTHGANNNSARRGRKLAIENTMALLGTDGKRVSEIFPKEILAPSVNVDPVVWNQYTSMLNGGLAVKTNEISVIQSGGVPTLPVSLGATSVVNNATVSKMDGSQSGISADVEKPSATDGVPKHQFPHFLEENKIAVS
Notes: 8-mer, flanks averaged, mean of replicates
CCAGGGCC: -0.442
TAGATGGA: -0.0149
CCTTCAGC: -0.271
AAAGGAAC: 0.0525
CCACTGTA: 0.033
CATTGCTC: -0.14
CCGTCGAA: -0.11
CCTGCCCG: -0.29
ACCGTTGG: -0.252
GAACCCCA: -0.236
CACCCCAC: -0.136
CCCGGGCC: -0.46
ACCCTGTG: -0.187
GACTAGAC: -0.0309
CTATGAAA: 0.227
GATTTGCC: -0.0564
CTTATCTC: 0.214

Set 5 — technique: RNA Bind-n-Seq; form: RNA; matrix: in vitro; concentration: 200 nM; notes: whole 134-nt RNA, ends assumed; together with: 150 mM KCl; reference: input library; reading: higher = stronger binding; quantity: log2 enrichment
Target: Fragile X messenger ribonucleoprotein 1, C-terminal low-complexity region (Fmr1, Mus musculus, UniProt P35922)
All sequences stand within: GGGAGUUCUACAGUCCGACGAUC … UGGAAUUCUCGGGUGUCAAGG
CACAGACAACACGCACCCACACAGACACAGAGGGAAGGGGUUGUGAUGGGGACAGGGUGCACAGCAGGGCGGGGUAGGACCCCAGCCCCU: 0.798
UGGGUUCUUAUUUCUAACUUGCAUAUGUUUUGUUUUUCAGAAGGAGUUGAGCCUUCCAAGAAGAGGCAGCUUGUAAGUAGAUGAUUAUUA: -1.13
UACUCUCUCGGGGCUGGAAGCUUCCUGACUGAAGAUCUCUCUGCACUUGGGGUUCUUUCUAGAACAUUUUCUAGUCCCCCAACACCCUUU: 1.09
UCCUGUGCUACACAUCGUAUGUACCGAAUCGGGAAAAAGGGAAAAAAAGGGAAAAAGGGAAAGUAUUAUGUUACGCCGUUCGGAUCUGCA: -0.251
UCCUGUGCUACACAUCGUAUGUACCGAAUCAAAUUUUUAAAUUUUUAAACCCCCCCAAAAAAGUAUUAUGUUACGCCGUUCGGAUCUGCA: 0.333
CUCAAGUCCUGUGCUACACAUCGUAUGUACCGAAUCGGGUGGGAGGGUUUGGGAAAGUAUUAUGUUACGCCGUUCGGAUCUGCACUUCCA: 1.22
AAGUCCUGUGCUACACAUCGUAUGUACCGAAUCGGAAAAAAAGGUGGUUUUUUUGGAAAGUAUUAUGUUACGCCGUUCGGAUCUGCACUU: -0.981
UCCUGUGCUACACAUCGUAUGUACCGAAUCAAAUUUUUUUAAAUUUAAAUUUUUUUAAAAAAGUAUUAUGUUACGCCGUUCGGAUCUGCA: -0.343
CCUGUGCUACACAUCGUAUGUACCGAAUCGGGUUUUUGGGAAAAAAAGGGAAAAAAAGGGAAAGUAUUAUGUUACGCCGUUCGGAUCUGC: -0.891
CACAGACAACACGCACCCACACAGACACAGAGGGAAGGGGUUGGGAUGGGGACAGGGUGCACAGCAGGGAAAGGUAGGACCCCAGCCCCU: 0.972
AGUCCUGUGCUACACAUCGUAUGUACCGAAUCGGGAAAAAGGGUUUUUUUGGGUGGGAAAGUAUUAUGUUACGCCGUUCGGAUCUGCACU: 0.666
AGUCCUGUGCUACACAUCGUAUGUACCGAAUCGGGUUUGGGUUUUUUUGGGAAAGGGAAAGUAUUAUGUUACGCCGUUCGGAUCUGCACU: 0.534
AGUCCUGUGCUACACAUCGUAUGUACCGAAUCGGAAAAAGGAAAAAGGGGAAAAAGGAAAGUAUUAUGUUACGCCGUUCGGAUCUGCACU: -0.815
AAGUCCUGUGCUACACAUCGUAUGUACCGAAUCGGGUUUUUGGGUUUGGGAAAGGGAAAGUAUUAUGUUACGCCGUUCGGAUCUGCACUU: 0.455

Set 6 — target: MAFK, bZIP domain (human); technique: DHFR protein complementation; matrix: yeast; reference: wild-type JUN-FOS pair; reading: higher = stronger binding; quantity: binding fitness
Notes: single substitutions, most at no-binding floor
Starting sequence: JUN, bZIP domain (human); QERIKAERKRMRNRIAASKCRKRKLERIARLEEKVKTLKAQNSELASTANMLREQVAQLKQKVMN; partner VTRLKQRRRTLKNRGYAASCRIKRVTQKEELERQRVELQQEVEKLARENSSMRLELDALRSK
T48A: -1.51 natural log
E44M: -1.62 natural log
E44H: -1.48 natural log
A57N: -1.63 natural log
E54D: -1.5 natural log
S43T: -1.48 natural log
L52M: -1.5 natural log
K39E: -1.55 natural log
E44P: -1.54 natural log
T48I: -1.48 natural log
E33W: -1.51 natural log
R53P: -1.48 natural log
V56W: -1.52 natural log
A29V: -1.47 natural log
A49M: -1.22 natural log

Single results of other studies
PhoQ, residues 284 288 289 292 302 303 ALVSVA
fold induction (PhoP, residues 12 14 15 18 19 LWHSL (Escherichia coli, UniProt P23836); Sort-seq, measured: YFP reporter; E. coli; PhoQ-PhoP variant library, together with: 10 µM Mg2+; reference: high Mg2+ state, higher = stronger signaling): 15.1 and 31.5

For quick reference, copied from above (set 4):
CCACTGTA: 0.033
CATTGCTC: -0.14
CCGTCGAA: -0.11
CCTGCCCG: -0.29
ACCGTTGG: -0.252
GAACCCCA: -0.236
CACCCCAC: -0.136
CCCGGGCC: -0.46
ACCCTGTG: -0.187
